Measurements collected from several papers.
Numbered parts are unrelated; each lists some results of a single study. Changes are numbered by the printed parent chain.

Block 1 — technique: RNA Bind-n-Seq; form: RNA; medium: in vitro; concentration: 20 nM; notes: 6-mer, flanks averaged, single round; together with: 150 mM KCl; baseline: input library; reading: higher = stronger binding
Target: TAR DNA-binding protein 43, full length, His tag (TARDBP, Homo sapiens, UniProt Q13148, residues 1-414)
Oligonucleotide | 6-mer enrichment (R)
CGAAGC | 0.781
CAGCGG | 1.86
GCCGGG | 3.73
GGUUUC | 0.752
CUCGAG | 0.845
GAACGA | 0.906
UUAUCG | 0.596
GGGUCA | 2.02
AUGCAU | 0.741
AGACAA | 0.687
GUCUCG | 0.822
UUACCU | 0.583
UACAUG | 0.676
UCUCCA | 0.577
CUAUUC | 0.547
UCCUAG | 0.635
CAAAAG | 0.718
UCAGAG | 0.936

Block 2 — technique: aptamer microarray, sandwich; form: DNA with 2'F-ANA; medium: in vitro; concentration: 200 nM; together with: Cy3 exosite-II aptamer, 400 nM; reading: higher = stronger binding; oligonucleotide: GGTTGGTGTGGTTGG
Target: Prothrombin, mature alpha-thrombin (F2, Homo sapiens, UniProt P00734)
Notes: whole 15-mer aptamer, many near background
Modification | mean fluorescence intensity
2'F-ANA at 1 2 3 6 9 10 11 14 15 | 54.4 a.u.
2'F-ANA at 7 9 10 11 12 13 14 | 111 a.u.
2'F-ANA at 1 2 3 4 6 8 9 11 12 13 | 192 a.u.
2'F-ANA at 2 3 4 6 7 9 10 13 14 15 | 207 a.u.
2'F-ANA at 2 6 8 10 11 | 116 a.u.
2'F-ANA at 1 4 5 6 7 8 9 11 14 15 | 55.2 a.u.
2'F-ANA at 1 5 6 11 12 13 | 82.6 a.u.
2'F-ANA at 3 6 9 10 13 14 15 | 463 a.u.
2'F-ANA at 2 5 7 8 12 15 | 225 a.u.
2'F-ANA at 4 5 7 10 11 12 14 | 45.3 a.u.
2'F-ANA at 4 5 7 9 11 13 15 | 50.9 a.u.
2'F-ANA at 1 2 3 7 8 9 11 12 13 | 384 a.u.
2'F-ANA at 1 2 4 5 6 7 8 13 14 15 | 60.4 a.u.
2'F-ANA at 3 5 6 7 9 10 12 13 14 | 48 a.u.
2'F-ANA at 5 8 9 10 11 14 15 | 128 a.u.
2'F-ANA at 3 6 8 9 10 13 15 | 463 a.u.
2'F-ANA at 2 4 6 7 8 10 13 | 72 a.u.
2'F-ANA at 1 3 4 5 6 11 12 13 15 | 67.4 a.u.
2'F-ANA at 1 3 6 10 11 13 15 | 72.3 a.u.
2'F-ANA at 3 5 6 9 12 13 14 | 58.2 a.u.
2'F-ANA at 4 5 6 7 8 9 14 | 50.3 a.u.
2'F-ANA at 3 4 6 7 10 11 13 14 | 167 a.u.
2'F-ANA at 2 3 4 6 7 8 10 15 | 206 a.u.
2'F-ANA at 1 2 4 5 7 8 11 12 14 15 | 48.5 a.u.
2'F-ANA at 1 2 5 6 7 10 13 14 | 50.6 a.u.

Block 3 — technique: protein binding microarray; form: double-stranded DNA, one strand shown; medium: in vitro; concentration: not given; baseline: not given; reading: higher = stronger binding
Target: Histone acetyltransferase KAT6A, winged helix 1, GST fusion (KAT6A, Homo sapiens, UniProt Q92794, residues 1-85)
Notes: 8-mer, flanks averaged, mean of 2 arrays, mostly near background
Target sequence (chain): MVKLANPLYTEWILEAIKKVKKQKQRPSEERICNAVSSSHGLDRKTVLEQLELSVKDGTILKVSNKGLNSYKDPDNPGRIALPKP
Oligonucleotide | E-score
CAGTGGGC | -0.208
ACTGAAAT | -0.172
CAGGGAGA | -0.187
CGGTTCTC | 0.0739
CCTCACAC | -0.153
CACATTCG | 0.0376
AATACCTC | -0.0501
ATAAGCCG | 0.209
ATTAGGCG | 0.131
AGAAGGGA | -0.0523
ACAGAGTA | -0.1
ACAACTGC | -0.0105
ACTGAGCA | -0.181
CGGACCCA | 0.135
CAAGGGCG | 0.233
CAGTTCTC | -0.121
GGATCTCA | -0.0664
AAGGAATG | -0.102

Block 4 — technique: RNA Bind-n-Seq; form: RNA; medium: in vitro; concentration: 200 nM; notes: whole 134-nt RNA, ends assumed; together with: 150 mM LiCl; baseline: input library; reading: higher = stronger binding; library: 7-deaza-guanosine replaces G
Target: Ras GTPase-activating protein-binding protein 1, full length (G3BP1, Homo sapiens, UniProt Q13283)
UniProt Q13283, sequence (whole entry, looked up): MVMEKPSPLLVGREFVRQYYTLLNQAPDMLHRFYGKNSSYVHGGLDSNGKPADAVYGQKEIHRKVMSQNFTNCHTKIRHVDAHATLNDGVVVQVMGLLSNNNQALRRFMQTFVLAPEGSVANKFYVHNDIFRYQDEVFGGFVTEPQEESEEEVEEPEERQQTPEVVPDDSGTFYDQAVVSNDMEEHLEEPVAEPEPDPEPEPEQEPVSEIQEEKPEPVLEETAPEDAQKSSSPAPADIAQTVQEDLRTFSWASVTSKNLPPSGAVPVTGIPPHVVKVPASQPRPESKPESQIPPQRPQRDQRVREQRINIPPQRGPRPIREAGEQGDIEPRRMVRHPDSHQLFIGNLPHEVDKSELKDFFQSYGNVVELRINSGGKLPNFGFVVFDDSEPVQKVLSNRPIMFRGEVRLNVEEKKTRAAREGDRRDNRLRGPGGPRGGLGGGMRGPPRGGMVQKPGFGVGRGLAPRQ
Constant ends, left off below: GGGAGUUCUACAGUCCGACGAUC … UGGAAUUCUCGGGUGUCAAGG
Oligonucleotide | log2 enrichment
CCUGUGCUACACAUCGUAUGUACCGAAUCGGUUUUUUUGGGUUUUUUUGGGGUUUUUUUGGAAAGUAUUAUGUUACGCCGUUCGGAUCUG | 0.824
GUCCUGUGCUACACAUCGUAUGUACCGAAUCGGGUUUUUGGGAAAAAAAGGGUUUGGGAAAGUAUUAUGUUACGCCGUUCGGAUCUGCAC | -2.78
GUCCUGUGCUACACAUCGUAUGUACCGAAUCGGGAAAAAAAGGGUUUUUUUGGGAGGGAAAGUAUUAUGUUACGCCGUUCGGAUCUGCAC | -1.36
ACCAUGCAGGUGGGCAUCUUUGGGAAGUGGGGCAAGGGGGGGAUAGGGAGGGGGGUAAAAAUUUGGGAACAGGUGGUCCCAGGUCGUUUC | 0.115
CCUCAAGUCCUGUGCUACACAUCGUAUGUACCGAAUCGGGGAGGGAGGAGGGAAAGUAUUAUGUUACGCCGUUCGGAUCUGCACUUCCAG | 0.532
CUGUGCUACACAUCGUAUGUACCGAAUCGGGGAAAAAAAGGGGAAAAAGGGGUUUUUGGGGAAAGUAUUAUGUUACGCCGUUCGGAUCUG | -0.158
UCCUCAAGUCCUGUGCUACACAUCGUAUGUACCGAAUCGGGUGGUGGGGUGGAAAGUAUUAUGUUACGCCGUUCGGAUCUGCACUUCCAG | 0.27
AAGUCCUGUGCUACACAUCGUAUGUACCGAAUCGGGGUUUUGGGGUUUUGGUUUUGGAAAGUAUUAUGUUACGCCGUUCGGAUCUGCACU | -0.611
AAGUCCUGUGCUACACAUCGUAUGUACCGAAUCGGAAAAAGGUUUUUUUGGAAAGGAAAGUAUUAUGUUACGCCGUUCGGAUCUGCACUU | -2.6
ACCAUGCAGGUGGGCAUCUUUGGGAAGUGGGGCAAGGGGGGGAUAGGGAGGGGGGUAACACUUUGGGAACAGGUGGUCCCAAAUCGUUUC | 0.39
AAGUCCUGUGCUACACAUCGUAUGUACCGAAUCGGGAAAAGGAAAAGGGGAAAAGGGAAAGUAUUAUGUUACGCCGUUCGGAUCUGCACU | 0.358

Block 5 — target: CCNB3, cyclin fold, Cln2 fusion (human); technique: yeast growth competition, sequencing; medium: yeast; notes: strong parent motif; baseline: not given; reading: higher = stronger binding
Parent: PKN2 docking peptide (human); VSAVRKLDFSDTM
Change | normalised enrichment score
VSAVRKLDFPDTM [S10P] | 1.18
VSAVRKTDFSDTM [L7T] | 0.00976
VSAVRNLDFSDTM [K6N] | 0.243
VSCVRKLDFSDTM [A3C] | 2.89
VSAVRKLDFSMTM [D11M] | 1.95
VSAVRVLDFSDTM [K6V] | 1.57
VSAVWKLDFSDTM [R5W] | 0.163
VSAVRKLDFEDTM [S10E] | 1.14
VSADRKLDFSDTM [V4D] | -0.0285
VSAVRKLDKSDTM [F9K] | -0.124
VSAVRKLDFMDTM [S10M] | 0.885
VSAVRKLGFSDTM [D8G] | 0.128
VSAVRKLDFSDSM [T12S] | 1.62
VSAVRKLDFYDTM [S10Y] | 1.03
VSAVRKLDFSDEM [T12E] | 1.28
VSAVRDLDFSDTM [K6D] | -0.0166
VSWVRKLDFSDTM [A3W] | 0.588
VQAVRKLDFSDTM [S2Q] | 1.5
VSAVRKYDFSDTM [L7Y] | 0.0449
VSAVRWLDFSDTM [K6W] | 0.659
VSAARKLDFSDTM [V4A] | 1.21
VSAVKKLDFSDTM [R5K] | 0.584
VSAVRKHDFSDTM [L7H] | 0.0552
VSAVRKLDFSCTM [D11C] | 2.1
VSALRKLDFSDTM [V4L] | 0.607
